Measured values of several laboratories.
Parts stem from different laboratories: compare values within a part only.
Sequence of UniProt Q14012 (whole entry, looked up): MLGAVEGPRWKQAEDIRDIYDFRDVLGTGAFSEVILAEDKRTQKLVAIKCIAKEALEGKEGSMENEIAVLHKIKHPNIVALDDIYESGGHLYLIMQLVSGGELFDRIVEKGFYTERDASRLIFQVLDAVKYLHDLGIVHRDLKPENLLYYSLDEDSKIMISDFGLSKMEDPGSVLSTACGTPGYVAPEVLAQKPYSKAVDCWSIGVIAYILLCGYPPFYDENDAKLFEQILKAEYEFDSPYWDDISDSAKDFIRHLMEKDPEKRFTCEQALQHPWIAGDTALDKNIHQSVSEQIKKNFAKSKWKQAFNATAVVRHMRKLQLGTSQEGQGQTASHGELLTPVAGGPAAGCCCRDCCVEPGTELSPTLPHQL
Sequence of UniProt P54762 (whole entry, looked up): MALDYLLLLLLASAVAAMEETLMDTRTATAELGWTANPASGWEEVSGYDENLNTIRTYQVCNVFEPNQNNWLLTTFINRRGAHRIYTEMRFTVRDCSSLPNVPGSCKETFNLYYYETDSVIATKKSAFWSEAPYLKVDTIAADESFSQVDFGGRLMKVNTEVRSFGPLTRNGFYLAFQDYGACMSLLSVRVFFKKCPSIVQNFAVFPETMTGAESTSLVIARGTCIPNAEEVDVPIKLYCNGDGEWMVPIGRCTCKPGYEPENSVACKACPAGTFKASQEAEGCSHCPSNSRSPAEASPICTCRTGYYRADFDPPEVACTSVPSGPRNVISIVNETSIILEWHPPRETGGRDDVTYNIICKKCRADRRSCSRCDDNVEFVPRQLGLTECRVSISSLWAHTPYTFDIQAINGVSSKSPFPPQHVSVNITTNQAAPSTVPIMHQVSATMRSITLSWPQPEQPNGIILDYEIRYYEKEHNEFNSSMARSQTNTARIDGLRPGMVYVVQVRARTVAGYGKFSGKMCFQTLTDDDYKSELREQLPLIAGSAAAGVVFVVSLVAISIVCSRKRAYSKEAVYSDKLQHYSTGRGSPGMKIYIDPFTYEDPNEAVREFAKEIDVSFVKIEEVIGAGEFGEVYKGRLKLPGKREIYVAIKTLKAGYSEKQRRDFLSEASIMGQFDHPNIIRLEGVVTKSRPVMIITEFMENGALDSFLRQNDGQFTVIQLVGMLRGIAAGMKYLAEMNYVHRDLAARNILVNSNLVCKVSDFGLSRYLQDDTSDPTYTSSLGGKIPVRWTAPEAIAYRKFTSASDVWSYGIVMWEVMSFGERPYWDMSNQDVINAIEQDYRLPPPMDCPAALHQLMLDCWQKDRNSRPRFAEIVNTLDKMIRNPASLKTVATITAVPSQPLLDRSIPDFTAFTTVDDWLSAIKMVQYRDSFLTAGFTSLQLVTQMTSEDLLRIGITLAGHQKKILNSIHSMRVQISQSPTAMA
Sequence of UniProt Q9BX84 (whole entry, looked up): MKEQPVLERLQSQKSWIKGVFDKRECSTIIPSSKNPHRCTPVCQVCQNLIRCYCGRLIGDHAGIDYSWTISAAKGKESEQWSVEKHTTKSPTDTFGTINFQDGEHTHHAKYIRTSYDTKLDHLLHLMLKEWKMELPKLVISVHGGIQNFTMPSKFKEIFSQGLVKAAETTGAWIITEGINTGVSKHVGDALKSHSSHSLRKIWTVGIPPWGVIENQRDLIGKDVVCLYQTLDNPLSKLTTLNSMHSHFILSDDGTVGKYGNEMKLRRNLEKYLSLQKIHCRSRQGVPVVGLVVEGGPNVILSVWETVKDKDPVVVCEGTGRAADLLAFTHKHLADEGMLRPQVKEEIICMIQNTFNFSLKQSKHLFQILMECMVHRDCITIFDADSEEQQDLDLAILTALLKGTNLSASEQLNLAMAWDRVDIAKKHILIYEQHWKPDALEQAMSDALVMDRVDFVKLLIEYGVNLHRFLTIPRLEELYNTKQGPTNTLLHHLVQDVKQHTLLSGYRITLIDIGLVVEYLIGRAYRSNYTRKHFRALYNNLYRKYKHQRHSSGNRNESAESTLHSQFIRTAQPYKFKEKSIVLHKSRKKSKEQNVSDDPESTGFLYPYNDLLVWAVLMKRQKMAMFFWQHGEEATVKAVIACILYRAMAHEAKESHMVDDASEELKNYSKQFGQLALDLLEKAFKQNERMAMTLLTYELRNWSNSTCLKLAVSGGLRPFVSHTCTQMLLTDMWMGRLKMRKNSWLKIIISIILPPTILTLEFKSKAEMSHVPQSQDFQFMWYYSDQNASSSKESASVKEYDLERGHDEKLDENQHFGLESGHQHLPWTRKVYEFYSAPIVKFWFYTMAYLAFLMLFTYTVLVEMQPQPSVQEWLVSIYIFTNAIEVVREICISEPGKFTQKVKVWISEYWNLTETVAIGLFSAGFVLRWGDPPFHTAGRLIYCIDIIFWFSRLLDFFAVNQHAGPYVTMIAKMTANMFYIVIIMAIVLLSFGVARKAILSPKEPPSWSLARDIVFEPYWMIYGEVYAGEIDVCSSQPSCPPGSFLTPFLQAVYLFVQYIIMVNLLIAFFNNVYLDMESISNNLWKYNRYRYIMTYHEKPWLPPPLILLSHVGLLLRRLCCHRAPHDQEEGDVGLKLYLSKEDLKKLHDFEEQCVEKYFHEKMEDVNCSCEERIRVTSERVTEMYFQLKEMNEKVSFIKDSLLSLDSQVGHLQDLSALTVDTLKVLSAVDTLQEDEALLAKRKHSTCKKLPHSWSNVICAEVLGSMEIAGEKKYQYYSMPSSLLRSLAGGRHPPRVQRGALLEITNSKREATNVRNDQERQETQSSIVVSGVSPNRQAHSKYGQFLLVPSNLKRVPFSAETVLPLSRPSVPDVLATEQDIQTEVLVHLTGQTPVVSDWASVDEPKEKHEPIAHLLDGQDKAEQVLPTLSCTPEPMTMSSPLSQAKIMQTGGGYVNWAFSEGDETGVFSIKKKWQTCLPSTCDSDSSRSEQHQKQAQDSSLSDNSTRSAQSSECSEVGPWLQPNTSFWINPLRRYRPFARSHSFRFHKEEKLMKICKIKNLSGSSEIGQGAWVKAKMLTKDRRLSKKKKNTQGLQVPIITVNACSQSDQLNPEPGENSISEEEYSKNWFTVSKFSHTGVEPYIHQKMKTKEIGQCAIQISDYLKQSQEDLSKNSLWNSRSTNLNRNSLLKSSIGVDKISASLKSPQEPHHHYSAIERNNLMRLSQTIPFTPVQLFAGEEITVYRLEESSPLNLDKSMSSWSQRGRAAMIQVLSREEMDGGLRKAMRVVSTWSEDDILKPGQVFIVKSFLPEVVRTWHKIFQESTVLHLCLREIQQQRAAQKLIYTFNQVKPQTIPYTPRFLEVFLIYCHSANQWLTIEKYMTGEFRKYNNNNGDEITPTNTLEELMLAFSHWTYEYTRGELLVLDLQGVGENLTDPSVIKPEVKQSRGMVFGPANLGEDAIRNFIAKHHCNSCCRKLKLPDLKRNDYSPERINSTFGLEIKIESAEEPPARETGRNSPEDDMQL
Sequence of UniProt P46734 (whole entry, looked up): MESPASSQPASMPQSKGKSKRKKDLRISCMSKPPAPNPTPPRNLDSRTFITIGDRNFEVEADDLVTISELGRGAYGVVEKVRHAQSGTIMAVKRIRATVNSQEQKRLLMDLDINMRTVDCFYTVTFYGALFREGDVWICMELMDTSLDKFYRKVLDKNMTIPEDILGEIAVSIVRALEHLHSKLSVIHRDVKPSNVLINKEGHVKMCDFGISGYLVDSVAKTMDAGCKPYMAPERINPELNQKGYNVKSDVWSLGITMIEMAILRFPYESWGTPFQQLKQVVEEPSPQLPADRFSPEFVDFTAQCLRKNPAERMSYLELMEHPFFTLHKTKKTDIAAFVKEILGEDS

Block 1
Compound: Cc1ccc(NC(=O)c2ccnc(C(F)(F)F)c2)cc1-c1cc(OCCO)nc(N2CCOCC2)c1
Tested at: 1 µM
target	assay	conditions	scale	remaining binding [%]
Ephrin type-B receptor 1 (EPHB1, Homo sapiens, UniProt P54762)	competitive binding panel		baseline: vehicle	91
Serine/threonine-protein kinase Sgk3 (SGK3, Homo sapiens, UniProt Q96BR1)	competitive binding panel		baseline: vehicle	100
Mitogen-activated protein kinase kinase kinase kinase 1 (MAP4K1, Homo sapiens, UniProt Q92918)	competitive binding panel, item: HPK1		baseline: vehicle	83
Inhibitor of nuclear factor kappa-B kinase subunit epsilon (IKBKE, Homo sapiens, UniProt Q14164)	competitive binding	IKK-epsilon		94
Mitogen-activated protein kinase kinase kinase 4 (MAP3K4, Homo sapiens, UniProt Q9Y6R4)	competitive binding panel		baseline: vehicle	90
Cyclin-dependent kinase 7 (CDK7, Homo sapiens, UniProt P50613)	competitive binding panel		baseline: vehicle	98
Epidermal growth factor receptor (EGFR, Homo sapiens, UniProt P00533)	competitive binding panel		baseline: vehicle	67
G protein-coupled receptor kinase 4 (GRK4, Homo sapiens, UniProt P32298)	competitive binding panel		baseline: vehicle	99
Phosphatidylinositol 4,5-bisphosphate 3-kinase catalytic subunit alpha isoform (PIK3CA, Homo sapiens, UniProt P42336, E542K)	competitive binding panel		baseline: vehicle	90
Serine/threonine-protein kinase RIO2 (RIOK2, Homo sapiens, UniProt Q9BVS4)	competitive binding panel		baseline: vehicle	100
Dual specificity mitogen-activated protein kinase kinase 3 (MAP2K3, Homo sapiens, UniProt P46734)	competitive binding panel, item: MEK3		baseline: vehicle	77
Phosphorylase b kinase gamma catalytic chain, liver/testis isoform (PHKG2, Homo sapiens, UniProt P15735)	competitive binding panel		baseline: vehicle	88
Transient receptor potential cation channel subfamily M member 6 (TRPM6, Homo sapiens, UniProt Q9BX84)	competitive binding panel		baseline: vehicle	82
Tyrosine-protein kinase ABL1 (ABL1, Homo sapiens, UniProt P00519, F317I)	competitive binding scan			83
ALK tyrosine kinase receptor (ALK, Homo sapiens, UniProt Q9UM73)	competitive binding panel		baseline: vehicle	89
Calcium/calmodulin-dependent protein kinase type 1 (CAMK1, Homo sapiens, UniProt Q14012)	competitive binding panel		baseline: vehicle	100
Muscle, skeletal receptor tyrosine-protein kinase (MUSK, Homo sapiens, UniProt O15146)	competitive binding panel		baseline: vehicle	91

Block 2
Target: High affinity nerve growth factor receptor (NTRK1, Homo sapiens, UniProt P04629)
Sequence of UniProt P04629 (whole entry, looked up): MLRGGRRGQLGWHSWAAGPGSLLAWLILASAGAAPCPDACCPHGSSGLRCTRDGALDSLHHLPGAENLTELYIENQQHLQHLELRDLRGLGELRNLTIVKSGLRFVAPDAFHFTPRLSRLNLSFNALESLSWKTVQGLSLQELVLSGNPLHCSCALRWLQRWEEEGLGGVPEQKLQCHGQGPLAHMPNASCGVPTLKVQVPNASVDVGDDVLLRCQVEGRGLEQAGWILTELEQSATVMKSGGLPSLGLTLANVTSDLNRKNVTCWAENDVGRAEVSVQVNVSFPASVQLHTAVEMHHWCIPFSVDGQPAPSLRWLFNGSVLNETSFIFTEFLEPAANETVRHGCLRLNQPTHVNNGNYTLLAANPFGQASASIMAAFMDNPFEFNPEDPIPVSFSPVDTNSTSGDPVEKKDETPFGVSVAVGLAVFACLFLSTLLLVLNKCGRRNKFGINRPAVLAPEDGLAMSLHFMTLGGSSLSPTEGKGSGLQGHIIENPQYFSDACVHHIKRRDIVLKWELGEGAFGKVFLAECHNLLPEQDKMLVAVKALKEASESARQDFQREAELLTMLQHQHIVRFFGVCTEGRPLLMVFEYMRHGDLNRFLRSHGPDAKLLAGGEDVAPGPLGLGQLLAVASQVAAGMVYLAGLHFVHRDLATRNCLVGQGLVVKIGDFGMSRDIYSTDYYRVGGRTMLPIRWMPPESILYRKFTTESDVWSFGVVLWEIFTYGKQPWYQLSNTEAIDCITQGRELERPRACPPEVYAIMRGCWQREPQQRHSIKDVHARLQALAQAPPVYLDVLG
Observed: enzyme activity
Mode: inhibitor
Tested at: 0.5 µM
Baseline: control
Structure (SMILES)	remaining activity [%]
O=c1cc(N2CCOCC2)oc2c1ccc1ccccc12	96.4
CCC(=O)Nc1ccc2ncnc(Nc3cccc(Br)c3)c2c1	95.8
O=C1NC(=O)/C(=C/c2ccc3nccnc3c2)S1	94.2
Cn1cnc2cc3c(Nc4cccc(Br)c4)ncnc3cc21	90.8
Cn1cc(/C=C2\C(=O)Nc3ccc(S(N)(=O)=O)cc32)c2ccccc21	6.15
Cc1nc(Nc2ncc(C(=O)Nc3c(C)cccc3Cl)s2)cc(N2CCN(CCO)CC2)n1	97.2
COc1ccc(Cl)cc1NC(=O)Nc1cc(C)nc2ccccc12	92.5
COc1cc2ncc(-c3ccccc3)nc2cc1OC	93.2
CCN1/C(=C/C(C)=O)Sc2ccc(OC)cc21	85.7
COc1cc2ncnc(Nc3ccc(OCc4ccccc4)cc3)c2cc1OC	97.1
CCOc1cc2ncnc(Nc3cccc(Br)c3)c2cc1OCC	89.6
CC(=O)O/N=C1/C(c2c(O)[nH]c3cc(Br)ccc23)=Nc2ccccc21	54.7
COc1ccc(-c2cnc3c(-c4ccsc4)cnn3c2)cc1	93.2
CC(C)[C@H](CO)Nc1nc(Nc2cccc(Cl)c2)c2ncn(C(C)C)c2n1	67.3
CN(C)CCCn1cc(C2=C(c3c[nH]c4ccccc34)C(=O)NC2=O)c2ccccc21	108
O=C(Nc1ccc(Cl)cc1)c1ccccc1NCc1ccncc1	95.5
CS(=O)(=O)CCNCc1ccc(-c2ccc3ncnc(Nc4ccc(OCc5cccc(F)c5)c(Cl)c4)c3c2)o1	99.2
CC(C)c1nn(-c2c(Cl)cccc2Cl)c2nc(Cc3ccc(OCCO)cc3)[nH]c(=O)c12	89
Cc1ccc(NC(=O)c2ccc(CN3CCN(C)CC3)cc2)cc1Nc1nccc(-c2cccnc2)n1	102
COc1cc2ncnc(N3CCN(C(=O)Nc4ccc(Oc5ccccc5)cc4)CC3)c2cc1OC	90.6
C[S+]([O-])c1ccc(-c2nc(-c3ccncc3)c(-c3ccc(F)cc3)[nH]2)cc1 (centres unmarked)	100
Nc1[nH]nc2nnc(-c3c(-c4ccccc4)nn4ccccc34)cc12	101

Block 3
Target: Beta-3 adrenergic receptor (ADRB3, Homo sapiens, UniProt P13945)
Sequence of UniProt P13945 (whole entry, looked up): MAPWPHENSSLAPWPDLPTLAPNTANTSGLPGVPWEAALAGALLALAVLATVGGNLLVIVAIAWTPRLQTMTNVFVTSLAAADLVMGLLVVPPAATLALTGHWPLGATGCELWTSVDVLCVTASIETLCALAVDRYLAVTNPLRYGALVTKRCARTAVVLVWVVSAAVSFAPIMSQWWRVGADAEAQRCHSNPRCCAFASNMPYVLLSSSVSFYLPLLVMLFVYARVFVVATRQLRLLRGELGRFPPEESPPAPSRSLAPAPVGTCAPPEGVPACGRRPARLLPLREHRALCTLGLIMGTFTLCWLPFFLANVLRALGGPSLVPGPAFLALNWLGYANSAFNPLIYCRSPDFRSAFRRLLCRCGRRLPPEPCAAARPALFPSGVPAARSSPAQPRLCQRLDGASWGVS
Observed: binding
Technique: radioligand binding
Tested at: 10 µM
SMILES	inhibition [%]
CC(C)(O)c1cncc(-c2nc3ccc(F)cc3n2C2CC2)c1	16.7
CNC(=O)c1ccc(Nc2ncc(C(F)(F)F)c(NCc3nccnc3N(C)S(C)(=O)=O)n2)cc1	4.63
CN([C@@H]1CCc2c(CC(=O)O)c3cc(S(C)(=O)=O)ccc3n2C1)S(=O)(=O)c1ccc(F)cc1	0.851
Cc1cc(-n2nc(Cc3cc(F)cc(C(F)(F)F)c3)nc2C)ccc1C(N)=O	4.48
O=C(Nc1cccnn1)N1CCC(=Cc2cccc(Oc3ccc(C(F)(F)F)cn3)c2)CC1	0.69
CN1CCN(C(=O)C(C)(C)c2ccc(C(=O)Nc3cn4cc(-c5ccncc5)ccc4n3)cc2)CC1	-11.5
COc1nc2ccc([C@@](O)(c3ccccc3)C3CCN(C(C)=O)CC3)cc2c(Cl)c1Cc1ccc(-n2cccn2)cc1	39.4
C[C@@]1(Cc2ccc(C#N)cc2)C(=O)N(c2cc(Cl)cc(Cl)c2)c2ncc(C(=O)NC3(c4nc(C5CCC5)no4)CC3)n21	-16.4
CC1=C(C#N)C(c2ccc3c(c2)c(NC(=O)c2ccccc2C)nn3C)C(C#N)=C(C)N1	-3.33
C[C@@H]1CN(c2cc(-c3nn(C)c4ccc(OC5(C)CC5)cc34)ncn2)C[C@H](C)O1	11.8
CN1C(=O)[C@@H](N2CCc3cn(Cc4ccccc4)nc3C2=O)COc2ccccc21	9.8
CCCOc1ccc([C@H]2[C@H](C(=O)O)[C@@H](c3ccc4c(c3)OCO4)CN2CC(=O)Nc2c(CC)cccc2CC)cc1	13.3
Cc1c(N2CCCC2)nc2ccc(Br)cc2c1C(=O)NC[C@H](CCC(=O)O)c1ccccc1Cl	21.6
O=C(Nc1ccc(-n2nc(-c3cccnc3)cc2C(F)(F)F)cn1)c1ccc(-c2ccccc2)c(F)c1	-0.78
O=C(O)c1cc(-c2ccc(C3CCNCC3)cc2)c2ccc(-c3ccc(C(F)(F)F)cc3)cc2c1	65.2
Cc1nc(Cc2cccc(C(F)(F)F)c2)sc1-c1ccc(C(N)=O)nc1	-1.63
COCCc1ccc(-c2c(C)nc3c(N4CCOCC4)ccnn23)cn1	-11.2
Cc1nc(C2CCN(C(=O)c3ccc(OC(F)(F)F)cc3N)CC2)c2ncc(N3CCN(C)CC3)cc2n1	-12.6
CCOCCn1cc(C(=O)Nc2ccc(-n3nc(-c4cccnc4)cc3C(F)(F)F)cn2)ccc1=O	-18.5
O[C@]1(C(F)(F)F)CCCC[C@H]1Nc1ccc(F)cc1	31
Cc1cc(C)c(-n2ccn3nc(-c4cccnc4)cc23)cc1NC(=O)c1cc(C#N)cc(S(F)(F)(F)(F)F)c1	52.3
Cc1nccc(COC(=O)N2C[C@@H]3[C@@H](CNC(=O)c4ccc5[nH]nnc5c4)[C@@H]3C2)n1	-6.02

Block 4
Structure (SMILES): CC(C)n1cnc(-c2ccc(F)cc2)c1-c1ncc(C(=O)Nc2ccc(N3CCN(C)CC3)cc2)[nH]1
Technique: phase 2a clinical trial
Host: idiopathic pulmonary fibrosis patients
assay	conditions	scale	patients with TEAEs [%]
item: reproductive and breast disorders	30 mg once daily, grade 3 maximum intensity		0
item: respiratory tract infection	60 mg once daily, grade 1 maximum intensity	baseline: patients	1
item: reproductive and breast disorders	60 mg once daily, grade 2 maximum intensity		0
item: respiratory tract infection	dose not given, grade 2, all drug arms	baseline: patients	2
item: infections and infestations	dose not given, grade 2, all drug arms	baseline: patients	10
item: neoplasms (SOC)	dose not given, grade 1, all drug arms		0
item: neoplasms (SOC)	60 mg once daily, grade 2 maximum intensity		0
item: neoplasms (SOC)	30 mg once daily, grade 3 maximum intensity		0
item: infections and infestations	30 mg once daily, grade 1 maximum intensity	baseline: patients	1
item: neoplasms (SOC)	30 mg once daily, grade 2 maximum intensity		0
item: reproductive and breast disorders	30 mg once daily, grade 1 maximum intensity	baseline: patients	1
item: neoplasms (SOC)	dose not given, grade 5, all drug arms		0
item: oral herpes	oral, 30 mg once daily, grade 1 maximum intensity	baseline: patients	1
